Measurements from different studies.
Every numbered part comes from another study and shows a few of its results, in no order. Changes are numbered by the printed parent chain.

Series 1
Target: RING finger protein unkempt homolog, zinc fingers 1-6, GST-SBP tag (UNK, Homo sapiens, UniProt Q9C0B0, residues 30-357)
Method: RNA Bind-n-Seq
Molecule type: RNA
Medium: in vitro
Concentration: not given
Notes: RNA with constant flanks, ends assumed
Reference: input RNA pool
Reading: higher = stronger binding
Shared flanks, not repeated: GGGAGUUCUACAGUCCGACGAUC … CAACAGAGGAUUGAGCAUCA
Target sequence (chain): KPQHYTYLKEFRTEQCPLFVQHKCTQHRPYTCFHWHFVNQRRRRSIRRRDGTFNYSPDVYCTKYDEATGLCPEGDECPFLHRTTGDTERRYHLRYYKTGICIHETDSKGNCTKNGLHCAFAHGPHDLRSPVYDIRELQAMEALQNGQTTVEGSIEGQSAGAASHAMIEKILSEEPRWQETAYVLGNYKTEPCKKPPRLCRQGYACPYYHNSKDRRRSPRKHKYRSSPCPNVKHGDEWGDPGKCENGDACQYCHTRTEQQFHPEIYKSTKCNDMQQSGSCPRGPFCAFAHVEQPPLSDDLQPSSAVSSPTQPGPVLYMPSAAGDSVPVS
Sequence	bound/input enrichment
UACCACGAGGGGGGACGCGUCUGGGUUGGCAGACCUUUUGGAUGUAGCCUUGUGGGAACAUUCCGACCCUUUCCUCUGGAAGAGCCACCAUGAAUUCGGUAGCCGGAAAUAAAGAGAGGC	0.14 ratio
CGCUAUUGUGUUUCAACAAGAGACUUGCCCUCCCUGUUGUCUUCCACUGUACAUGCUGUAUACCGGGGUCACGUGAUGCCGCUGAAGACAAGAAUAAACUGGAGUAGAUUAGUUUGCUGU	0.198 ratio
UAUGUACCAAAUGUUCCAGAAGGUUCUGUGAGAAUUAUAGACCAAUCCAGCAAUGUGGAGACCGCAUCUUUUCCAAUCUAUAAGGUGUUAUUCUGUGCACGUGGACAUGACGGAACAACA	0.258 ratio
GGAAUUGCAAACUGAUUCAAGUUUGAAUAUCACAAUGUUAGCUUUCUAAUUCCACACAGACCGUUUUUACAGUUUCUAACCCCACAUCAAUCCAUCACCGUUUAUAAAGAUCAGCUUCCC	0.544 ratio
UAAAUAUACAAUACAUCAUACAUACUUUACAAGCAAGUUAAAUGGAGAUAAAGUUGAAAUCACCGAAGAUGCAAAUGACCUUUCAAAAUCAACACAAUGUGUUCUGAAACUUUCGUGACU	0.114 ratio
GGGAUCGCUCCGUCGCACCCACCAUGAUGGAAGACGACGGGCAGCCCCGGACUCUAUACGCCGGUAACCUUUCCAGAGAUGUGACAGAAGUCCUUAUACUUCAGUUGUUCAGUCAGAUUG	0.0724 ratio
ACUUGUAAUUUCUUUCUGCUUAGAAUCUAAAGAUGUGUUUAGAACCUCUUGUUUAAAAAUAACCGACUGCUUAUCAUAAAAUCACAUCUCACACAUUUGAGGCAGUGGUCAAACAGGUAA	0.53 ratio
UUGAAUGGUUUGGAAUAUGUGCCACAAAGACUGAAAAAUCUUAAUGAAAUUAAUAAGCUGCCCGCACAUCGACCUUGGCUGAUCACAAAAGAGCACAUUCAGAAACUUGUCAAAACUGGA	0.28 ratio

Series 2
Target: CCNF, cyclin fold, Cln2 fusion (human)
Method: yeast growth competition, sequencing
Medium: yeast
Notes: strong parent motif
Reference: not given
Reading: higher = stronger binding
Starting sequence: CDKN1A docking peptide (human); SKACRRLFGPVDS; partner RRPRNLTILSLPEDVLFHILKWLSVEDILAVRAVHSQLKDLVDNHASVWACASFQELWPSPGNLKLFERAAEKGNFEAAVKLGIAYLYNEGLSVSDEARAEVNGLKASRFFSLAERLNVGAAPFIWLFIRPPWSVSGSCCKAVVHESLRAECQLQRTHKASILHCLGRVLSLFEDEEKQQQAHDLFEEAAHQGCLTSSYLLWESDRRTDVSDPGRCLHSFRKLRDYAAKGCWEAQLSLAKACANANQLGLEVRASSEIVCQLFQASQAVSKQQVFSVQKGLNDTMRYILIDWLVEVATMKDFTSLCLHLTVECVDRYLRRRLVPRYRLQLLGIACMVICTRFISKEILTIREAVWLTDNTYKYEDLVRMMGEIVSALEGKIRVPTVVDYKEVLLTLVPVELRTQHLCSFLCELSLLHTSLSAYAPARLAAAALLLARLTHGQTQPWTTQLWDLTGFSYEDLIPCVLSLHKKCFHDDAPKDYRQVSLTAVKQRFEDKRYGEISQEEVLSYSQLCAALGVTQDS
Substitution	normalised enrichment score
SKACRRLFNPVDS [G9N]	7.08
SKACRRLFWPVDS [G9W]	8.35
SKACRRLFGPHDS [V11H]	7.54
SKFCRRLFGPVDS [A3F]	3.86
SEACRRLFGPVDS [K2E]	6.37
SKACRRLFGPVWS [D12W]	7.2
SKACRRLQGPVDS [F8Q]	0.00376
SKACRPLFGPVDS [R6P]	3.13
SKACRRLFGPWDS [V11W]	8.39
SKACCRLFGPVDS [R5C]	1.38
SKACKRLFGPVDS [R5K]	4.07
SKACRRLFGVVDS [P10V]	6.47
SKACERLFGPVDS [R5E]	-0.0494
SKACRRFFGPVDS [L7F]	1.14
SKSCRRLFGPVDS [A3S]	5.35
SKACRRLEGPVDS [F8E]	0.26

Series 3
Target: Histone acetyltransferase KAT6A, winged helix 2, GST fusion (KAT6A, Homo sapiens, UniProt Q92794, residues 85-181)
Method: protein binding microarray
Molecule type: double-stranded DNA, one strand shown
Medium: in vitro
Concentration: not given
Notes: 8-mer, flanks averaged, mean of 2 arrays, mostly near background
Reference: not given
Reading: higher = stronger binding
Residues (chain): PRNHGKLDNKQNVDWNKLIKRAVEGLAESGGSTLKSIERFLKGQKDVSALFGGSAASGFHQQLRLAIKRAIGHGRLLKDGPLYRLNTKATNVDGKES
Sequence	E-score
AGTCAGTA	0.0289
ACCCCGAT	0.0142
ACTTTGAA	-0.0913
GAATTCCA	0.0682
ATCGCGAG	0.069
CTTGTTCA	-0.0714
AGATTCTG	0.0551
CACGCCCA	0.0945
GCCCGATA	0.049
TGGTACAA	-0.156
GCATAGGA	-0.037
AATCGTAA	-0.124
GACCTTAA	-0.0423
GGATTGAC	-0.0214
AGGTCCCC	0.101

Series 4
Target: Sal-like protein 4, full length isoform B (SALL4, Homo sapiens, UniProt Q9UJQ4-2, residues 1-616)
Method: universal PBM
Molecule type: double-stranded DNA, one strand shown
Medium: in vitro
Concentration: not given
Notes: 8-mer, flanks averaged, mean of replicates
Reading: higher = stronger binding
Sequence	E-score
AGTGCGAG	-0.165
ATAACCGC	0.129
CCACCTAC	0.0274
CTCCTCTC	-0.144
AGGGAGTA	0.0164
CCTATTCA	0.0196
AGATGTAT	0.305
AACTGGAA	0.00328
AGGAGCCT	-0.339
GCGACCCC	-0.243
CAATTAAC	0.178
AGAATTGC	0.0583
TTATTAAA	0.451
CTCTTGTA	0.113
TACCGGAA	-0.0168
ACTTCGCG	-0.127
TATGCCCA	-0.0706
AGGAAGCG	-0.1
CAAGCTTC	0.0762
ACCATGCA	0.00729
AATCGGTA	0.104
CTCAAACC	-0.184
CCCCCCCC	-0.31

Series 5
Target: Centromere-binding protein 1, full length, N-terminal tag (CBF1, Saccharomyces cerevisiae, UniProt P17106, residues 1-351)
Chain of UniProt P17106 (whole entry, looked up): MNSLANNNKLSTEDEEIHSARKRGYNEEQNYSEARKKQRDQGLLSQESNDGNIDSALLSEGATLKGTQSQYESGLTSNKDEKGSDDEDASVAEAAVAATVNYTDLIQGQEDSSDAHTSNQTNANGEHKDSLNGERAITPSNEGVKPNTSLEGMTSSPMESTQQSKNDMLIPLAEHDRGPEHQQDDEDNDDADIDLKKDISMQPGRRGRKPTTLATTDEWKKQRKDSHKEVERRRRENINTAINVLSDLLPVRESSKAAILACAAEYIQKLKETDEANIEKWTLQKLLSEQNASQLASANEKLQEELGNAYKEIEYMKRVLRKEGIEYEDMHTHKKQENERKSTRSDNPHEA
Method: protein-binding microarray
Molecule type: double-stranded DNA, one strand shown
Medium: in vitro
Concentration: 0.8 µM
Notes: whole 60-bp probe, no competitor
Reading: higher = stronger binding
Shared flanks, not repeated: … GTCTTGATTCGCTTGACGCTGCTG
Sequence	fluorescence intensity [a.u.]
GAAAACAGGAAAACCAACGTGAATTGCAAGCACTAG	513
CTATAGTTCGCGCATCACGAGGTACGTGTTTAATTC	2140
CTAAGAAATGCCCATCATCAGAGCCACGCAACATTC	536
GAATTCTAACTAAGCATCAGAACATAATACAATTAG	528
CCTAACTACTATAGTAGATCACAATAGCTTCGTACA	551
GAAAAGCCTGTCTGCGACGTGCTCCGTCCTATTTAG	493
CTACGTTATTTTATTCAGTTGATCATTTCTTGTTTC	491
CTACTAAAGAACGTGCATCAGAGAAGAATGACTTTC	1030
GAAACCCTGACGCAACTCGTCACCACGCTGTTGTAG	550
CTAGTGTCAAGACCCCACATGTATACATGGATATTC	599
CTACAAAAAATTCATCACGAAGTGCTAAAGGAATTC	554
GAAAAATAAAATGCTGATGTTACTATTAGATTATAG	527
GAAAAACAGTTGGGTCACATATAACTGAATACATAG	538
GAAACTCCGTTCCATGGTGTGACTTTTTTAAGGTAG	651
TGTACGAAGCTATAACTTAATCATATAGTAGTTAGG	501
CTAGCCACATTTCATCACCTTTAAGTTAAGTACTTC	485

Series 6
Target: Interferon regulatory factor 7, full length, phosphomimetic (IRF7, Homo sapiens, UniProt Q92985, residues 1-503, S471D/S472D/S475D/S476D/S477D/S483D/S484D/S487D)
Method: protein-binding microarray
Molecule type: double-stranded DNA, one strand shown
Medium: in vitro
Concentration: 2200 nM top
Notes: 60-bp whole probe
Added: salmon DNA 0.4 mg/ml
Reference: random background probes
Reading: higher = stronger binding
Shared flanks, not repeated: GCCTAGCAC … GTCTTGATTCGCTTGACGCTGCTG
Target sequence (chain): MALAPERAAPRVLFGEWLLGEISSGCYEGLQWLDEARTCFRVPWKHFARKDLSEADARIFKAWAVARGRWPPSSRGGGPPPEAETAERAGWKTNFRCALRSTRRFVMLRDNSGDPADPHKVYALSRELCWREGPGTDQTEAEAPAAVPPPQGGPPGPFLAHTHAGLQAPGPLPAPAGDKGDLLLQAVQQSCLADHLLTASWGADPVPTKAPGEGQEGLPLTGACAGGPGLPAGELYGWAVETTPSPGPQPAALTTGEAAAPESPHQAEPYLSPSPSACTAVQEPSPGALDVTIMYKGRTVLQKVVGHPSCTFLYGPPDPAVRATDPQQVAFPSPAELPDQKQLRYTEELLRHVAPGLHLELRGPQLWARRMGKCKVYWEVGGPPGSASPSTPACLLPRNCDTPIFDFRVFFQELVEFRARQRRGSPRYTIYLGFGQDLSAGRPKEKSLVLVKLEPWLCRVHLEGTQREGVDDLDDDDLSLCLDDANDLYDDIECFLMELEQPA
Sequence	fitted relative affinity [z-score]
TCATTACCGCATATCGGACTGTGCTAG	0.786
TTAGGTATCGGACTGAGTTAGTGCTAG	0.156
CTCTGCTTGCGTCTGGGTGTGTGCTAG	0.494
TTAGGACTGGGGCATCGGTTAGTGCTA	-0.827
GACGGACTGGACTAACGGGACGTGCTA	-1.11
AACGGTATCGACACTGGGGACGTGCTA	0.112
GGTGCCTCGGGTTCAGGGAGGTGCTAG	-0.719
GACGGTATCCTTCGCCTGACGTGCTAG	0.88
AAGGTTACCCATCTCAAGTAGTGCTAG	0.379
TTAGGTTACCTTTCCCTTTAGTGCTAG	2.69
CTATGAAGTCATGTCTTCAGGTGCTAG	0.298
GACGGTCTCCTTCTCCTAACGTGCTAG	1.2
GACCGTATCCTTCTCCTGACGTGCTAG	1.69
TCACTACTGTATTTGGCACTGTGCTAG	0.952
TTAGATCTCAGTATCGAATAGTGCTAG	-0.06
GACGGTTTCCGTATCGGGACGTGCTAG	2.94
TTAGGTATCCTTATCCTTGAGTGCTAG	0.515
GACGGCATCGGTATCGGGACGTGCTAG	-0.412
